Results of several laboratories.
Each line is one published result; not all experiments were run side by side. Several values in a cell are separate wells, animals, samples, runs or records. ± gives the spread as reported.

| Compound | tested on | assay | system | setting | how to read | quantity | result |
| --- | --- | --- | --- | --- | --- | --- | --- |
| CC(C)(C)OC(=O)N1CCN(c2ccc(-c3ccc4ncnc(Nc5ccc(OCc6cccc(F)c6)c(Cl)c5)c4c3)cc2)CC1 | Leishmania major | intracellular amastigote growth, luciferase | RAW264.7 macrophages |  |  | EC50 | > 3 µM |
| COc1cccc(OC)c1-c1cc(C(=O)NC2(C(=O)O)C3CC4CC(C3)CC2C4)nn1-c1ccc(C(=O)NCCNC(=O)[C@H](CCCCNC(=O)[C@H](CC(C)C)NC(=O)C2OC2C(=O)O)NC(=O)CN2CCN(CC(=O)[O-])CCN(CC(=O)[O-])CCN(CC(=O)[O-])CC2)cc1C(C)C.[177Lu+3] (mixture of isomers) |  |  | mouse HT-29 xenograft | 24 h, biodistribution | reference: tumour over stomach | tumour-to-stomach ratio | 30.8 |
| O=C1c2sc(-c3ccc(N4CCC(F)C4)nc3F)nc2CCN1c1cccnc1 (stereo not drawn) |  | HPLC | rhesus monkey, plasma | intravenous, 90.02 min |  | parent fraction | 0.107 |
| Fc1cccc(COc2ccc(Nc3ncnc4ccc(-c5ccccc5)cc34)cc2Cl)c1 | Leishmania major | intracellular amastigote growth, luciferase | RAW264.7 macrophages |  |  | EC50 | > 15 µM |
| CC(C)[C@H](NC(=O)[C@H](Cc1c[nH]c2ccccc12)NC(=O)[C@H](CCCNC(=N)N)NC(=O)[C@H](CCCNC(=N)N)NC(=O)[C@@H](NC(=O)[C@@H](NC(=O)[C@H](CCCNC(=N)N)NC(=O)[C@@H](NC(=O)[C@@H](NC(=O)[C@H](CCCNC(=N)N)NC(=O)[C@H](CCCNC(=N)N)NC(=O)[C@@H](NC(=O)[C@H](Cc1c[nH]c2ccccc12)NC(=O)[C@H](CCCNC(=N)N)NC(=O)[C@H](CCCNC(=N)N)NC(=O)[C@@H](NC(=O)[C@H](CCCNC(=N)N)NC(=O)[C@H](CCCNC(=N)N)NC(=O)[C@@H](NC(=O)[C@H](Cc1c[nH]c2ccccc12)NC(=O)[C@H](CCCNC(=N)N)NC(=O)[C@@H](N)CCCNC(=N)N)C(C)C)C(C)C)C(C)C)C(C)C)C(C)C)C(C)C)C(C)C)C(=O)N[C@@H](CCCNC(=N)N)C(=O)N[C@@H](CCCNC(=N)N)C(=O)O |  |  | CD1 mouse, urine | intravenous, 15 mg/kg, 6 h, [14C]-labelled compound |  | sodium excretion | < 6.4 µmol/day/g body weight |
| CC(C)(C)C(=O)Nc1ccc2[nH]c(CN3CCC(N(CCCN4CCOCC4)CC4OC(n5cnc6c(N)ncnc65)C(O)C4O)CC3)nc2c1 (stereo not drawn) |  |  | male Sprague-Dawley rat, plasma | intraperitoneal, 20 mg/kg, 4 h |  | concentration | 53 ng/mL |
| CCCCN1C(=O)c2cccc3c(NCCCCCCCCCCN4CCOCC4)ccc(c23)C1=O |  |  | dioxane |  |  | Stokes shift | 85 nm |
| CC1(C)CC[C@@]2(CO)C(=C3C=C[C@@H]4[C@@]5(C)CC[C@H](O)[C@@](C)(CO)[C@@H]5CC[C@@]4(C)[C@]3(C)C[C@@H]2O)C1 |  | UHPLC-MS/MS | mouse, plasma | oral, 50 mg/kg of saikosaponin a, 8 h |  | plasma concentration | 64.6 ng/mL |
| O=C1c2sc(-c3ccc(N4CCC(CO)CC4)nc3F)nc2CCN1c1cccnc1 |  |  | CD1 mouse, plasma | i.v., dose not given, 0.5 h |  | concentration | 14.7 ng/mL and 21.8 ng/mL and 13.2 ng/mL |
| OCC1OC(n2cnc3c(NCc4ccc(Br)s4)ncnc32)C(O)C1O (stereo not drawn) |  | equilibrium dialysis | rat plasma | 0.05 µg/mL, 4 h, pH 7.4 |  | fraction unbound | 0.03 |
| CN(Cc1cc(C2CC2)on1)C(=O)c1cccc(-c2ccc(F)cc2)c1 |  |  | male ICR/CD-1 mouse, liver microsomes | 2 µM, 0 min, pH 7.5, added: 1-aminobenzotriazole 500 µM, preincubated 30 min |  | remaining compound | 100% |
| CN(O)C(=O)CCC(=O)NCCCN(CCCCN(CCCNC(=O)CCC(=O)N(C)O)C(=O)CCC(=O)N(C)O)C(=O)CCC(=O)N(C)O.[89Zr] |  |  | 0.9 % NaCl saline | 1 days, pH 4.5, 37 °C |  | intact compound | 98.9 ± 0.6% |
| N#C[C@@H]1CC(F)(F)CN1C(=O)CNC(=O)c1ccnc2c(NC(=O)C(N)CCCCNC(=O)CCOCCOCCOCCOCCOCCOCCNC(=O)CN3CCN(CC(=O)[O-])CCN(CC(=O)[O-])CCN(CC(=O)[O-])CC3)cccc12.[68Ga+3] (stereo partly drawn) |  |  | PBS | 60 min, 37 °C, 68Ga-labelled |  | radiochemical stability | 99.08 ± 0.6% |
| CCCCN1C(=O)c2cccc3c(NCCCN4CCOCC4)ccc(c23)C1=O |  |  | water | pH 6.0 |  | Stokes shift | 102 nm |
| O=C(N/N=C/c1cc[n+](CC2CC2)c2ccccc12)c1cncc(C(=O)N/N=C/c2cc[n+](CC3CC3)c3ccccc23)n1 | MYC parallel G4 DNA | FRET melting |  | 1 µM, DNA 0.2 µM |  | ΔTm | 11.2 ± 0.3 °C |
| CCCCN1C(=O)c2cccc3c(NCCCCCCCCN4CCOCC4)ccc(c23)C1=O |  |  | ethylene glycol |  |  | fluorescence quantum yield | 0.77 |
| [11CH3]N1CCC(NC(=O)c2cc(-c3c(O)cc(O)cc3Oc3ccc([N+](=O)[O-])cc3)on2)CC1 |  |  | healthy female Wistar rats, blood | intravenous, 60 min |  | standardized uptake value | 0.4 ± 0.1 g/mL |
| Nc1ncnc2[nH]c(/C=C/c3ccc(F)cc3)nc12 |  | HPLC | solution | after 1 h light exposure |  | purity | 100% |

| Compound | tested on | assay | system | setting | how to read | quantity | result |
| --- | --- | --- | --- | --- | --- | --- | --- |
| C=C(NC(=O)c1csc(-c2nc3c(cc2O)-c2nc(cs2)C(=O)NC(C(C)O)C(=O)NC(=C(C)OC)c2nc(cs2)C(=O)NC2c4nc(cs4)C(=O)NC(COC(=O)c4c5c6c(cccc6n4O)COC(=O)C(OC4CC(C)(O)C(N(C)C)C(C)O4)C2OC5)c2nc-3cs2)n1)C(N)=O (stereo not drawn) |  |  | Sprague-Dawley rat, both sexes, plasma | intravenous infusion, 18 mg/kg single dose |  | clearance | 55.5 mL/min/kg |
| CC(C)(O)c1ncc([S@](N)(=O)=NC(=O)Nc2c3c(cc4c2CCC4)CCC3)s1 |  | refers to: skin, subcutaneous tissue disorders | healthy human | oral, 100 mg, all formulations pooled |  | subjects with TEAEs | 33% |
| COC(=O)C(C)n1nc(Cn2cc3cc(OCC[18F])c(Cl)cc3n2)c2ccccc2c1=O (racemic) |  | PET | C57BL/6 mouse male | 40 min |  | brain uptake | 4.1 %ID/g |
| N[C@@H](CNC(=O)N[C@@H](CS)C(=O)NCC(=O)O)C(=O)O |  |  | mouse C57BL/6, brain homogenate | intranasal, 10 mg per mouse, 2 h |  | brain exposure per dose | 66.5 ± 3.67 µM·h/dose |
| [123I]c1ccc2nc(-c3ccc(-n4ccnn4)nc3)cn2c1 |  |  | male Wistar rat, lung | intravenous, 4 MBq, 24 h |  | tracer uptake | 0.002 %ID/g |
| O=C([O-])CN1CCN(Cc2cccc(C(=O)[O-])n2)CCN(CP(=O)([O-])[O-])CC1.[18F][Sc+2] |  | refers to: intact complex | phosphate-buffered saline | 4 h |  | radiochemical stability | 97% |
| C=CC(=O)Nc1cc(Nc2nccc(-c3c[nH]c4ccccc34)n2)c(OC)cc1N(C)CCN(C)C |  | storage stability | human plasma | 72 h, -80 °C, LLOQ level |  | recovery | 95.6% |
| CC(C)Cc1ccc(C(C)C(=O)NC(CCCCNC(=O)CCOCCOCCOCCOCCOCCOCCNC(=O)CN2CCN(CC(=O)[O-])CCN(CC(=O)[O-])CCN(CC(=O)[O-])CC2)C(=O)Nc2cccc3c(C(=O)NCC(=O)N4CC(F)(F)C[C@H]4C#N)ccnc23)cc1.[68Ga+3] (stereo partly drawn) |  |  | human serum | 30 min, 37 °C, 68Ga-labelled |  | radiochemical stability | 99.53 ± 0.8% |
| O=C(Nc1cnccc1-c1ccc([18F])nc1)c1ccnc(NC(=O)C2CC2)c1 |  |  | FVB/NJ mice (both sexes), heart | intravenous, dose not given, 120 min |  | SUV | 0.108 |
| Cc1cc(-c2ccc(C(=O)[C@@H]3CCCC[C@H]3C(=O)Nc3cnn4c3C(=O)NCC4)cc2)[nH]n1 |  |  | human, urine | oral, 200 mg, 0-192 h | reference: dose | cumulative recovery of radioactivity | 5.9% |
| CCCCN1C(=O)c2cccc3c(NCCCCN4CCOCC4)ccc(c23)C1=O |  |  | ethyl acetate |  |  | Stokes shift | 81 nm |
| CNc1cc(N)c(C(N)=O)c[n+]1C |  | substrate, refers to: methylated product | rats, plasma | oral, 30 mg/kg, 24.0 h |  | plasma concentration of product | 13.8 nM and 11.2 nM |
| CCCN(C)c1cc(C(F)(F)F)nc(SCCC(=O)NCc2ccco2)n1 |  |  | Wistar rat, plasma | intraperitoneal, 25 mg/kg, 2 h post-dose | reference: vehicle control | plasma troponin I | increased |
| C=CC(=O)Nc1cccc(Cn2ncc3cnc(Nc4cnn(CCOC)c4)nc32)c1 |  |  | mouse, CD-1, both sexes, whole blood | 5 µM, 120 min |  | remaining compound | 31.5% |
| C[n+]1ccc(/C=N/NC(=O)c2cccc(C(=O)N/N=C/c3cc[n+](C)c4ccccc34)c2)c2ccccc21 | hp2 hairpin duplex DNA | FRET melting |  | 1 µM |  | ΔTm | 0.2 ± 0.1 °C |
| COc1cccc(OC)c1-c1cc(C(=O)NC2(C(=O)O)C3CC4CC(C3)CC2C4)nn1-c1ccc(C(=O)N(C)CCOCCOCCN(C)C(=O)[C@H](CCCCNC(=O)[C@H](CC(C)C)NC(=O)C2OC2C(=O)O)NC(=O)CN2CCN(CC(=O)[O-])CCN(CC(=O)[O-])CCN(CC(=O)[O-])CC2)cc1C(C)C.[177Lu+3] (mixture of isomers) |  |  | mouse, HT-29 xenograft, spleen | 4 h post injection |  | tissue uptake | 0.83 %ID/g |
| COc1cc(-c2nc3ccccc3s2)cc(CN2CCN(CC(=O)O)CCN(Cc3cc(-c4nc5ccccc5s4)cc(OC)c3O)CC2)c1O |  | UV-vis spectrophotometric titration | aqueous NaCl 0.1 M | 20 µM, 25 °C, pH 3 to 11 |  | pKa3 | 8.48 |
| O=C(NS(=O)(=O)c1cccs1)c1cc2ccccc2n1Cc1ccc(Br)c2ccccc12 |  |  | KM mouse, chronic hyperuricaemia model | dose not given, day 20 |  | body weight | 35.6 g and 34.6 g and 36.4 g and 38 g and 32.8 g and 37.6 g |

Repeated from above:
| Compound | tested on | assay | system | setting | how to read | quantity | result |
| --- | --- | --- | --- | --- | --- | --- | --- |
| CCCCN1C(=O)c2cccc3c(NCCCCCCCCCCN4CCOCC4)ccc(c23)C1=O |  |  | dioxane |  |  | Stokes shift | 85 nm |
| CC1(C)CC[C@@]2(CO)C(=C3C=C[C@@H]4[C@@]5(C)CC[C@H](O)[C@@](C)(CO)[C@@H]5CC[C@@]4(C)[C@]3(C)C[C@@H]2O)C1 |  | UHPLC-MS/MS | mouse, plasma | oral, 50 mg/kg of saikosaponin a, 8 h |  | plasma concentration | 64.6 ng/mL |
| O=C1c2sc(-c3ccc(N4CCC(CO)CC4)nc3F)nc2CCN1c1cccnc1 |  |  | CD1 mouse, plasma | i.v., dose not given, 0.5 h |  | concentration | 14.7 ng/mL and 21.8 ng/mL and 13.2 ng/mL |
| OCC1OC(n2cnc3c(NCc4ccc(Br)s4)ncnc32)C(O)C1O (stereo not drawn) |  | equilibrium dialysis | rat plasma | 0.05 µg/mL, 4 h, pH 7.4 |  | fraction unbound | 0.03 |
